Experimental data from different studies.
Protocols differ between the studies behind these lines. ± marks the error that the study gave.

SMILES	test	system	setting	scale	quantity	result
COc1cc2c(cc1OC)CN(CCc1ccc(NC(=O)c3cccc4c(=O)c5cccc(OC)c5[nH]c34)cc1)CC2		CD-1 mouse, male, plasma	intraperitoneal, 1 mg/kg		elimination rate constant	1.46e-05 s⁻¹
Nc1nc2cc(-c3ccc4ncc(C(=O)N5CCOCC5)n4c3)ccc2o1		human, advanced solid tumours	100–300 mg once daily, any cause, grade ≥3		elevated ALT adverse events	13%
c1ccc2cc3c(cc2c1)-c1cccc2cccc-3c12		PDMS-water partitioning	PAH compilation	reference: maximum over minimum K	literature range factor	10
CCN(CCO)CCCC(C)Nc1ccnc2cc(Cl)ccc12 (stereo not drawn)		newly diagnosed glioblastoma patients	oral, 800 mg/dose, grade 2, with: radiotherapy and temozolomide		anemia patients	66%
CNC(=O)[C@@H](NC(=O)c1cc(OCC2(C)COC2)c(C2CC2)cn1)C(C)(C)C		C57BL/6 mice, plasma	intravenous, dose not given		dose-normalised AUC(0-inf)	226 kg·ng·h/mL/mg
COc1ncnn2ccc(-c3cnc4nc(C)n(Cc5nnc([C@@H](C)F)o5)c4c3)c12		human	oral, dose not given, grade 4		patients with vomiting	0%
CN1CC[C@@H](c2c(O)cc(O)c3c(=O)cc(-c4ccc(C(F)(F)F)cc4Cl)oc23)[C@@H]1CO	refers to: Anorexia	B-cell malignancies or AML	oral, 100 mg, continuous dosing		patients with adverse event	0%
CC(=O)c1c(C)c2cnc(Nc3ccc(C4CCN(CCS(C)(=O)=O)CC4)cn3)nc2n(C2CCCC2)c1=O		HR+/HER2- advanced breast cancer patients	oral, dose not given, all grades,, total		patients with Anemia	44.4%
C[C@]1(CO)Cc2ncn(-c3ccc(C#N)c(Cl)c3)c2C(=O)O1		healthy Japanese adults, plasma	40 mg once daily, after first dose, multiple dose		AUC(0-inf)	15.8 µM·h
Cc1cccc(Cn2nc(C3CC3)c3c(NC(=O)c4cnc5cc(OCCN6CCN(C)CC6)ccn45)cccc32)n1	CTCAE v4.03, refers to: blood alkaline phosphatase increased	PD-1/PD-L1 inhibitor-refractory patients	oral, dose not given, with: pembrolizumab IV every 3 weeks		all-cause adverse events	26.3%
CC(C)(C)c1cc(-n2nc3ccccc3n2)c(O)c(C(C)(C)C)c1		human aged 2-3 years	concentration not given, sunscreen, 95th percentile		daily dermal exposure dose	6.4 ng/kg/day
CC[C@H](C)[C@H](NC(=O)[C@H](Cc1ccc(O)cc1)NC(=O)[C@@H]1CCCN1C(=O)[C@H](CCCNC(=N)N)NC(=O)[C@@H](N)CCCNC(=N)NC(=O)NCCCCNC(=O)CCCCCN1\C(=C/C=C/C=C/C2=[N+](CCCCS(=O)(=O)[O-])c3ccccc3C2(C)C)C(C)(C)c2cc(S(=O)(=O)O)ccc21)C(=O)N[C@@H](CC(C)C)C(=O)O		PBS	pH 7.4	reference: cresyl violet perchlorate	fluorescence quantum yield	30%
CC[C@H](C)[C@H](NC(C)=O)C(=O)N[C@H]1CSSC[C@@H](C(=O)N[C@H](C(N)=O)[C@@H](C)O)NC(=O)[C@H](CCCNC(=N)N)NC(=O)[C@H](Cc2cnc[nH]2)NC(=O)[C@H](C)NC(=O)CNC(=O)[C@H](Cc2c[nH]c3ccccc23)NC(=O)[C@H](CC(=O)O)NC(=O)[C@H](CCC(N)=O)NC(=O)[C@H](Cc2cn(C)c3ccccc23)NC(=O)[C@H](C(C)C)NC1=O	isocratic RP-HPLC	C18 column	pH 7.4, 25 °C, elution method 2	higher = more lipophilic	log retention factor	0.263
Cc1ccc(S(=O)(=O)Nc2c(N[C@H]3CC[C@H](NC(=O)Nc4ccc(F)c(Cl)c4)CC3)c(=O)c2=O)cc1		rat, plasma	oral, 20 mg/kg		volume of distribution	240 L
COc1cc2c(Oc3ccc4[nH]c(C)cc4c3F)ccnc2cc1OCC1(N)CC1		paediatric recurrent refractory sarcoma	12 mg		grade 3 Appendicitis	9.1%
CN1CCN(c2ccc(Nc3nccc(-c4ccnc(NCc5ccccc5)c4)n3)cc2C(F)(F)F)CC1		Danio rerio embryos	5 µM, 5 d		toxicity	63 ± 23%
CCN1[C@@H](C(=O)NC23CCC(C(=O)O)(CC2)CC3)[C@H](c2cccc(Cl)c2F)[C@]2(C(=O)Nc3cc(Cl)ccc32)C12CCCCC2		patients with advanced solid tumours	oral, 200 mg		Embolism incidence	50%
CN1C(=O)[C@@H](NC(=O)c2nnc(Cc3ccccc3)[nH]2)COc2cccnc21	phase I single ascending dose	human, male and female	oral, 800 mg, fasted		participants with TEAE leading to death	0%
CCc1ccc(CC/C=C/c2ccc3c(c2)C(=O)CC3)cc1		Sprague-Dawley rat, male	oral, 450 mg/kg/day, 14 days		CHCM	319 g/L
CCN1CCN(Cc2ccc(Nc3ncc(F)c(-c4cc(F)c5nc6n(c5c4)[C@H](C)CCC6)n3)nc2)CC1		advanced solid tumour patients	dose not given, Phase Ia monotherapy		Hyponatremia incidence, any grade	20.8%

SMILES	test	system	setting	scale	quantity	result
Clc1cc(Cl)c(Cl)c(-c2ccccc2Cl)c1		polyethylene-water partitioning	PCB compilation	reference: maximum over minimum K	literature range factor	1.1
O=C(O)CCCOc1ccc(F)cc1-c1cc(-c2ccccc2C(F)(F)F)n(-c2ccccc2)n1	refers to: CRE	Crl:CD(SD) rats, female, blood	iv, 25 µg/kg, 14 days		blood chemistry	0.38 ± 0.02 mg/dL
CC(C)[C@H](O)C(=O)N[C@H]1Cc2ccc3c(c2)[C@]2(C4=C(c5nc(CO)co5)N=C(O4)[C@H](C(C)(C)C)NC1=O)c1cc(F)ccc1N[C@@H]2O3		NSG mice, lung	intravenous, 10 mg/kg, single dose at MTD, with: paclitaxel 40 mg/kg		terminal half-life	7 h
CCNCCCNC/C=C\CNCCCNCC		human, advanced solid tumours	intravenous, dose not given	reference: patients	ECG changed to abnormal	2.8%
O=C1Nc2cc3[nH]nc(-c4ccncc4)c3cc2CN1Cc1ccccc1	refers to: QTc prolongation	patients with advanced solid tumours	intravenous, dose not given		patients with TEAE	11%
COc1ccnc(C(=O)N[C@H]2COC(=O)[C@H](Cc3ccccc3)[C@@H](OC(=O)C(C)C)[C@H](C)OC2=O)c1OCOC(=O)C(C)C		mouse	oral, 90 days		LOAEL	192 mg/kg bw/day
CC[C@H](C)[C@H](NC(=O)[C@H](CCCNC(=N)N)NC(=O)[C@H](CC(C)C)NC(=O)[C@H](CC(C)C)NC(=O)[C@H](CC(C)C)NC(=O)[C@@H](NC(=O)[C@@H](N)CO)[C@@H](C)CC)C(=O)N[C@@H](CO)C(=O)N[C@@H](CC(C)C)C(=O)N[C@H](C(=O)N[C@@H](CCCCN)C(=O)O)[C@@H](C)O		mouse red blood cells			minimal haemolytic concentration	100 µM
CC(C)C[C@H](NC(=O)[C@H](CCCCN)NC(=O)OCC1c2ccccc2-c2ccccc21)C(=O)N[C@H](C(=O)N[C@@H](Cc1ccccc1)C(=O)N[C@@H](Cc1ccccc1)C(=O)N[C@@H](CCCCN)C(=O)NCC(=O)N[C@@H](Cc1ccccc1)C(=O)N[C@@H](C)C(=O)N[C@@H](Cc1c[nH]c2ccccc12)C(=O)N[C@@H](CC(N)=O)C(=O)N[C@H](C(=O)N[C@H]1CSSC[C@@H](C(=O)N[C@@H](Cc2c[nH]cn2)C(=O)N[C@@H](CCCNC(=N)N)C(=O)N[C@@H](CCCNC(=N)N)C(=O)N[C@@H](C)C(=O)N[C@@H](CC(N)=O)C(N)=O)NC(=O)[C@H](C(C)C)NC(=O)[C@H](CCCNC(=N)N)NC(=O)[C@H](C(C)C)NC(=O)CNC(=O)[C@H](CC(N)=O)NC(=O)[C@H](CCCNC(=N)N)NC(=O)[C@H](Cc2ccc(O)cc2)NC(=O)[C@H](C(C)C)NC1=O)C(C)C)C(C)C		ICR mouse, blood	intramammary, 5 mg/kg, day 5, 3 d dosing		haematocrit	41 ± 0.99%
CO[C@H]1C[C@@H]2CC[C@@H](C)[C@@](O)(O2)C(=O)C(=O)N2CCCC[C@H]2C(=O)O[C@H]([C@H](C)C[C@@H]2CC[C@@H](OC(=O)NCCOCCOCCOCCOCCOCCOCCOCCOCCC(=O)N3CCc4cc(Cn5nc(-c6ccc7oc(N)nc7c6)c6c(N)ncnc65)ccc4C3)[C@H](OC)C2)C[C@@H](O)[C@H](C)/C=C(\C)[C@@H](O)[C@@H](OC)C(=O)[C@H](C)C[C@H](C)/C=C/C=C/C=C/1C		patients with advanced solid tumours	intravenous, 1.6 mg/3 mg weekly, grade ≥3		incidence of Dyspnea TEAE	0%
C=CC(=O)N1CC[C@H](n2nc(C#Cc3cc(OC)cc(OC)c3)c3c(N)ncnc32)C1		patients with advanced solid tumours	oral, dose not given, Stomatitis, any grade, QD, with: ferric citrate hydrate		adverse drug reaction incidence	0%
Cc1cc(C)c(CNC(=O)c2cc(Cl)c3c(c2C)O[C@@](C)([C@H]2CC[C@H](N(C)C)CC2)O3)c(=O)[nH]1		relapsed/refractory NHL patients	dose not given, trial, safety set, all TEAEs grade 5		incidence of blood LDH increased	0%
Clc1ccc(-c2cc(Cl)c(Cl)c(Cl)c2Cl)cc1		PDMS-water partitioning	PCB compilation	reference: maximum over minimum K	literature range factor	1.1
COc1cccc2c1CCCC2CCCN1CCN(C2CCCCC2)CC1 (stereo not drawn)		CD-1 mouse, male, plasma	intraperitoneal, 3 mg/kg		AUC(0-t)	96 ng·h/mL
O=[N+]([O-])c1ccc2c(c1)S(=O)(=O)C=C2		male C57BL/6 mice, blood	intraperitoneal, 10 mg/kg, day 8, group average		red cell distribution width SD	32 fL
CC[C@H](C)[C@H](NC(=O)CN)C(=O)NCC(=O)N[C@@H](CCCCN)C(=O)N[C@@H](Cc1ccccc1)C(=O)N[C@@H](CC(C)C)C(=O)N[C@@H](Cc1c[nH]cn1)C(=O)N[C@@H](CO)C(=O)N[C@@H](C)C(=O)N[C@@H](CCCCN)C(=O)N[C@@H](CCCCN)C(=O)N[C@@H](Cc1ccccc1)C(=O)NCC(=O)N[C@@H](CCCCN)C(=O)N[C@@H](C)C(=O)N[C@@H](Cc1ccccc1)C(=O)N[C@H](C(=O)NCC(=O)N[C@@H](CCC(=O)O)C(=O)N[C@H](C(=O)N[C@@H](CCSC)C(=O)N[C@@H](CC(N)=O)C(=O)N[C@@H](CO)C(N)=O)[C@@H](C)CC)C(C)C	UPLC	TFA water/acetonitrile gradient		longer = more hydrophobic	retention time	2.12 min
CC(C)C[C@@H]1NC(=O)CNC(=O)[C@H](CC(N)=O)NC(=O)[C@H](CCCNC(=N)N)NC(=O)[C@H]([C@@H](C)O)NC(=O)[C@@H]2CSSC[C@@H]3NC(=O)[C@H]([C@@H](C)O)NC(=O)CNC(=O)CNC(=O)[C@H](CCCCN)NC(=O)[C@@H]4CSSC[C@H](NC(=O)[C@H]([C@@H](C)O)NC(=O)[C@H](CSSC[C@H](NC(=O)[C@H](C(C)C)NC(=O)[C@@H]5CCCN5C1=O)C(=O)NCC(=O)N[C@@H](CCC(=O)O)C(=O)N[C@@H]([C@@H](C)O)C(=O)N4)NC(=O)CNC(=O)[C@@H]1CCCN1C(=O)[C@H]([C@@H](C)O)NC(=O)[C@H](CC(N)=O)NC3=O)C(=O)N[C@@H](CO)C(=O)N[C@@H](Cc1c[nH]c3ccccc13)C(=O)N1CCC[C@H]1C(=O)N[C@@H](C(C)C)C(=O)N2	HPLC	ammonium bicarbonate 0.1 M	180 µM, 7 days, pH 9.0, 37 °C, deamidation stability		remaining peptide	81.4 ± 1%
O=S(=O)(Nc1ccccc1)c1ccc(NC(=S)Nc2ccccc2)cc1	refers to: Bu	male mouse, blood	oral, 5 mg/kg daily, 14 days		blood chemistry level	0.15 mg/dL
O=C(Nc1ccccc1)C1CCN(C(=O)Oc2cccnc2)CC1		healthy women	oral, 20 mg, 7 days		adverse event Palpitations	7.1%
CC(C)C[C@@H]1NC(=O)CNC(=O)[C@H](CC(N)=O)NC(=O)[C@H](CCCNC(=N)N)NC(=O)[C@H](CCCCN)NC(=O)[C@@H]2CSSC[C@@H]3NC(=O)[C@H]([C@@H](C)O)NC(=O)CNC(=O)CNC(=O)[C@H](C(C)C)NC(=O)[C@@H]4CSSC[C@H](NC(=O)[C@H]([C@@H](C)O)NC(=O)[C@H](CSSC[C@H](NC(=O)[C@H](C(C)C)NC(=O)[C@@H]5CCCN5C1=O)C(=O)NCC(=O)N[C@@H](CCC(=O)O)C(=O)N[C@@H]([C@@H](C)O)C(=O)N4)NC(=O)CNC(=O)[C@@H]1CCCN1C(=O)[C@H]([C@@H](C)O)NC(=O)[C@H](CC(N)=O)NC3=O)C(=O)N[C@@H](CO)C(=O)N[C@@H](Cc1c[nH]c3ccccc13)C(=O)N1CCC[C@H]1C(=O)N[C@@H](C(C)C)C(=O)N2	HPLC	ammonium bicarbonate 0.1 M	180 µM, 14 days, pH 9.0, 37 °C, deamidation stability		remaining peptide	17.3 ± 2.3%
